Assay results from different studies.
Every numbered part comes from another study and shows a few of its results, in no order. Substitutions count along the parent as printed.

Sample 1
Target: RNA binding protein fox-1 homolog 2, RRM domain, GST-SBP tag (RBFOX2, Homo sapiens, UniProt O43251-10, residues 100-194)
Method: RNA Bind-n-Seq
Form: RNA
Matrix: in vitro
Tested at: 365 nM
Notes: natural RNA segment, single round, ends assumed
Reference: no-protein control
Direction: higher = stronger binding
Quantity: RBNS enrichment (R)
Target sequence (chain): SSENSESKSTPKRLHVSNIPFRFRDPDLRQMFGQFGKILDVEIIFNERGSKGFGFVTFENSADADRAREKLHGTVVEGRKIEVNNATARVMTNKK
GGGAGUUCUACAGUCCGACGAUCUGUUGACUGGAUUUUGCAAAAGGAUGUAUAAUAUUUCUGUCUGCUCAGAAUAUUAAUUUGUAAAUUCUGCAAGUUUAAUUUUUAUGUAGAUGGUAUAACAUUUGAAAAUAUGGAAUUCUCGGGUGCCAA: 1.78
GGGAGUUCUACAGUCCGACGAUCUGCGGGUGAUCCUCAAGGCCAUGCUGCUUUCUGAGUUGUUCUUGUUGCUUUGUUCAUAAUGUGGUUACAGUCAUAUUACACUGACCCUGAGGGUAUUAUGUAACCCUUCAUGGAAUUCUCGGGUGCCAA: 0.451
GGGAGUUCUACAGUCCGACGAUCAGGAGUCGGUAGGACUGUGCCUGUGCCUCCCUCAGCGGGGCCCUGGGCGGGGUUCCAAGGCCUGCGAGCUGGGAAAGGACAGAUGAGGGGACCUCGUGCCUUCUUGCUGUUGGAAUUCUCGGGUGCCAA: 0.35
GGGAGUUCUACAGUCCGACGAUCCUUGUUCUCUACUGUUCACCGGGACCUGGCUGGCAAAUGACUUAGCUAUUAGUAUAUUUAAAAACUGUUCAAAAGCAAAAGAGAAGGAACAGGAAUGAAAGGAAACCUUCUGGAAUUCUCGGGUGCCAA: 0.59
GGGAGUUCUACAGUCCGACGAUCGAUGCCUCUCUGAGUGGAAAUCUUAUUUUUGUAGAUCUGUACUUUGCUCUCGAGGCUUGGAGAGAUGUGUGUCCCUCCCUGGCACUCACUUCAGGCCGCAUGGGCAGGAAUGGAAUUCUCGGGUGCCAA: 0.63
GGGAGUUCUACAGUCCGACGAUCCACUGCUGCUGCCCCGUCGGCAUGUGCGGCGGCUACCUGAGCUGACCCCUGCUGAGCGUGAUGGUCUAGCCUCCAUCAUGAAGAAGCUCUUGACCAAGUAUGACAACCUCUGGAAUUCUCGGGUGCCAA: 0.379
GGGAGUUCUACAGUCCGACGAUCGGGAGCCUCUGUUCUGGUGGGGGCCACCUCCCUCAGAGGCUCUGCUAGCCACACUCCGUGGCCCACCCUUUGUUACCAGUUCUUCCUCCUUCCUCUUUUCCCCUGCCUUUUGGAAUUCUCGGGUGCCAA: 0.417
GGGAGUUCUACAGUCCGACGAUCAACUGGGAGAGUCAAAAGUGAGCAGAAGCUCUCCAUUUCUACUUCUGUCACAAACCACAUUAAAUUGUAAAUAAGGCCCUUCUCCACUUGACUUCAGGCAGCAGAUUGUCUGGAAUUCUCGGGUGCCAA: 0.369

Sample 2
Target: Ras GTPase-activating protein-binding protein 1, full length (G3BP1, Homo sapiens, UniProt Q13283)
Chain of UniProt Q13283 (whole entry, looked up): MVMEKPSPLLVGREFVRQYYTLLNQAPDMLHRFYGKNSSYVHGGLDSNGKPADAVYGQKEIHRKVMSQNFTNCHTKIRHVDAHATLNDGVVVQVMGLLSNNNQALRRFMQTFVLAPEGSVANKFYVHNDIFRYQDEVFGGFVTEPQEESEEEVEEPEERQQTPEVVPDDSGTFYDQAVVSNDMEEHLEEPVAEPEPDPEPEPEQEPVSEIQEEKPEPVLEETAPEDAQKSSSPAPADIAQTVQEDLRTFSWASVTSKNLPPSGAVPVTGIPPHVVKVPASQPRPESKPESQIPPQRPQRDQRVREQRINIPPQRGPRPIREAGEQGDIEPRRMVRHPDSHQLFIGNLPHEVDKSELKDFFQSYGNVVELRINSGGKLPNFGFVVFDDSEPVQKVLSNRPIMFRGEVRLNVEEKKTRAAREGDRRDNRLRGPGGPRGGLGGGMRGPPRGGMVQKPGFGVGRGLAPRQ
Method: RNA Bind-n-Seq
Form: RNA
Matrix: in vitro
Tested at: 200 nM
Notes: whole 134-nt RNA, ends assumed
Added: 150 mM KCl
Reference: input library
Direction: higher = stronger binding
Quantity: log2 enrichment
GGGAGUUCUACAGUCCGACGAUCUUUUCUCACGAUGCACCUCCCCCUGGCACUAAGAAAAAGCACUUAUCCAUUGAGCAGCUGAAUGCUCGUCGCAGGAAAGUAUGGCUCAGCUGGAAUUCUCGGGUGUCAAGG: -0.466
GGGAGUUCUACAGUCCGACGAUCUUUCCCCUGGAGGGCGCCUCCAUCCUUGGAGGCCUAGUGCCGUCGGAGAGAGAGCGGGAGCCGCGGACAGAGACGCGUGCGCAAUUCGGAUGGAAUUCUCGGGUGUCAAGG: -0.942
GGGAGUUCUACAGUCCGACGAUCUAGUUUAUGCCAACGUGACUUCAUUCAUACAGAUGAACCAAGGAUCGGGAUAGCAGUAUAAAAUUAGAAUCAAGACAGCUGACUGCUCAGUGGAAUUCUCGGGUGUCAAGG: -2.21
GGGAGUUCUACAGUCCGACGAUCACCAUGCAGGUGGGCAUCUUUGGGAAGUGGGGCAAGGGGGGGAUAGGGAGGGGGGUAACACUUUGCGAACAGGUGGUCCCAGGUCGUUUCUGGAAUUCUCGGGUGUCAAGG: 1.44
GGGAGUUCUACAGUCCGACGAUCCCUCAAGUCCUGUGCUACACAUCGUAUGUACCGAAUCGGGAGGGAGGGAGGGGAAAGUAUUAUGUUACGCCGUUCGGAUCUGCACUUCCAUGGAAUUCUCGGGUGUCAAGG: 1.2
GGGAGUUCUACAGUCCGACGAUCACAAUGCAGGUGGGCAUCUUUGGGAAGUGGGGCAAGGGGGGGAUAGGGAGGGGGGUAACACUUUGGGAACAGGUGGUCCCAGGUCGUUUCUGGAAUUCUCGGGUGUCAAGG: 1.49
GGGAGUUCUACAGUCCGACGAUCCAAGUCCUGUGCUACACAUCGUAUGUACCGAAUCGGUUUGGUUUUUGGUUUUUGGAAAGUAUUAUGUUACGCCGUUCGGAUCUGCACUUCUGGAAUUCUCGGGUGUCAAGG: -0.966
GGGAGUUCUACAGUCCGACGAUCCCUCAAGUCCUGUGCUACACAUCGUAUGUACCGAAUCGGAGGGGAGGGGAGGGAAAGUAUUAUGUUACGCCGUUCGGAUCUGCACUUCCAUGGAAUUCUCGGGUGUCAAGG: 1.34
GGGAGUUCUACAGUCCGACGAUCAAGUCCUGUGCUACACAUCGUAUGUACCGAAUCGGGGUUUGGGGAAAGGGGUGGGGAAAGUAUUAUGUUACGCCGUUCGGAUCUGCACUUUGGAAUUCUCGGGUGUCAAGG: 0.928

Sample 3
Target: Interferon regulatory factor 5, full length, phosphomimetic (IRF5, Homo sapiens, UniProt Q13568-2, residues 1-514, S451D/S453D/S456D/S462D)
Method: protein-binding microarray
Form: double-stranded DNA, one strand shown
Matrix: in vitro
Tested at: 940 nM top
Notes: 60-bp whole probe
Added: salmon DNA 0.4 mg/ml
Reference: random background probes
Direction: higher = stronger binding
Quantity: fitted relative affinity
All sequences stand within: GCCTAGCAC … GTCTTGATTCGCTTGACGCTGCTG
TCACCTTTCTCCATGGGACTGTGCTAG: 0.774 z-score
TCAAACTTCTCCACTGAAACTGTGCTA: 0.691 z-score
GACGGTATCCTTACCCTGACGTGCTAG: -0.0398 z-score
TTAGGTCTCGACTTTCGGTTAGTGCTA: 4.08 z-score
TAGACTCTGTGCTTTCCTCGTGTGCTA: -0.0681 z-score
AGAAACTTGTATTTGTCCCTGTGCTAG: 2.38 z-score
CACGGTTTCGGGACTGGGGACGTGCTA: 6.2 z-score
TCCATGCTGGCTTTTATGCGGTGCTAG: -0.795 z-score
GACGGAATCGGACTGGGGACGTGCTAG: -0.386 z-score
TTATATTCCAGTTTCGATTAGTGCTAG: 9.16 z-score
GACGGTATCCTTTTCCTGACGTGCTAG: 0.769 z-score
TTAGGTTTCGGTTCCCGTTAGTGCTAG: 15.3 z-score
ACATATTTGTTTCCATTTTCGTGCTAG: 1.72 z-score
GACGGACTGGGTCTCGGGTCGTGCTAG: 0.086 z-score
AACACAAACCCGCTGGAGTTGTGCTAG: -0.481 z-score
GACGAACTGACTCTCGAGACGTGCTAG: 0.833 z-score
TCAGGTATGGCCTATTTAACTGTGCTA: -0.61 z-score
AGAGCTAAGTGAGTGTCATCGTGCTAG: -0.793 z-score
TTAGATATCAGGATCGATTAGTGCTAG: -0.0191 z-score

Sample 4
Target: CCNB1, cyclin fold, Cln2 fusion (human)
Method: yeast growth competition, sequencing
Matrix: yeast
Notes: strong parent motif
Reference: not given
Direction: higher = stronger binding
Quantity: normalised enrichment score
Parent: MICAL3 docking peptide (human); LQLRRQLSFSEDS
Q6P: 2.08
Q6W: 0.823
F9P: 0.0506
S8C: 1.46
S10H: 3.23
R5A: 0.546
S10C: 3.5
S8A: 1.16
L3S: 0.612
L3D: 0.0941
L7T: 0.0711
L3H: 0.507
S10K: 2.76
S8R: 1.1
S8V: 2.41
Q6C: 5.32
R5W: 1.11
S8Q: 1.69
Q6N: 2.06
D12P: 4.17
L7N: -0.0473
R5S: 0.161
F9T: 0.262
E11G: 3.58
D12F: 3.35

Repeated from above (sample 3):
TTAGGTTTCGGTTCCCGTTAGTGCTAG: 15.3 z-score
ACATATTTGTTTCCATTTTCGTGCTAG: 1.72 z-score
GACGGACTGGGTCTCGGGTCGTGCTAG: 0.086 z-score
AACACAAACCCGCTGGAGTTGTGCTAG: -0.481 z-score
GACGAACTGACTCTCGAGACGTGCTAG: 0.833 z-score
TCAGGTATGGCCTATTTAACTGTGCTA: -0.61 z-score
AGAGCTAAGTGAGTGTCATCGTGCTAG: -0.793 z-score
TTAGATATCAGGATCGATTAGTGCTAG: -0.0191 z-score
